Published values of several laboratories.
Each numbered part is a random draw from the data of one study; scales do not carry over between parts. Changes are numbered by the printed parent chain.

Series 1
Target: TAR DNA-binding protein 43, full length, His tag (TARDBP, Homo sapiens, UniProt Q13148, residues 1-414)
Method: RNA Bind-n-Seq
Molecule type: RNA
Medium: in vitro
Tested at: 20 nM
Notes: 6-mer, flanks averaged, single round
Together with: 150 mM KCl
Baseline: input library
Direction: higher = stronger binding
For `UCUCGA`, “6-mer enrichment (R)” read 0.564.
`UGCUCG`: “6-mer enrichment (R)” 0.754.
`CCGAGA` — result for “6-mer enrichment (R)”: 0.885.
For `AUUGGU`, “6-mer enrichment (R)” read 0.756.
`UCUAGC`: “6-mer enrichment (R)” 0.606.
For `GAUCUU`, “6-mer enrichment (R)” read 0.58.
For `ACUCGG`, “6-mer enrichment (R)” read 0.898.
`AGGUCC`: “6-mer enrichment (R)” 0.786.

Series 2
Target: CCNB3, cyclin fold, Cln2 fusion (human)
Method: yeast growth competition, sequencing
Medium: yeast
Notes: strong parent motif
Baseline: not given
Direction: higher = stronger binding
Starting sequence: viral docking peptide; KGVKRKLFAEDSS
`KGVKRKGFAEDSS [L7G]` — result for “normalised enrichment score”: 0.0671.
`KGVKRWLFAEDSS [K6W]`: “normalised enrichment score” 0.206.
`KGVKRKLFAEMSS [D11M]` — result for “normalised enrichment score”: 1.42.
`KGVKAKAFAEDSS [R5A L7A]`: “normalised enrichment score” 0.215.
`KGVKWKLFAEDSS [R5W]`: “normalised enrichment score” 0.358.
Under “normalised enrichment score”, `KIVKRKLFAEDSS [G2I]` is recorded as 1.91.
For `KGVKRKYFAEDSS [L7Y]`, “normalised enrichment score” read 0.465.
`KGVKVKLFAEDSS [R5V]` — result for “normalised enrichment score”: 0.328.
`KGVKRPLFAEDSS [K6P]` — result for “normalised enrichment score”: 0.157.
`KGVKEKLFAEDSS [R5E]` — result for “normalised enrichment score”: 0.31.
`KGVKRKLFAADSS [E10A]` — result for “normalised enrichment score”: 1.92.
For `KGVKRTLFAEDSS [K6T]`, “normalised enrichment score” read 5.35.
`KGVERKLFAEDSS [K4E]` — result for “normalised enrichment score”: -0.0114.
Under “normalised enrichment score”, `KGVKRKLFAEDWS [S12W]` is recorded as 2.8.
Under “normalised enrichment score”, `KGVKRMLFAEDSS [K6M]` is recorded as 0.995.
Under “normalised enrichment score”, `KGVKRGLFAEDSS [K6G]` is recorded as 0.699.

Series 3
Target: 5-hydroxytryptamine receptor 2A (HTR2A, Homo sapiens, UniProt P28223)
Sequence of UniProt P28223 (whole entry, looked up): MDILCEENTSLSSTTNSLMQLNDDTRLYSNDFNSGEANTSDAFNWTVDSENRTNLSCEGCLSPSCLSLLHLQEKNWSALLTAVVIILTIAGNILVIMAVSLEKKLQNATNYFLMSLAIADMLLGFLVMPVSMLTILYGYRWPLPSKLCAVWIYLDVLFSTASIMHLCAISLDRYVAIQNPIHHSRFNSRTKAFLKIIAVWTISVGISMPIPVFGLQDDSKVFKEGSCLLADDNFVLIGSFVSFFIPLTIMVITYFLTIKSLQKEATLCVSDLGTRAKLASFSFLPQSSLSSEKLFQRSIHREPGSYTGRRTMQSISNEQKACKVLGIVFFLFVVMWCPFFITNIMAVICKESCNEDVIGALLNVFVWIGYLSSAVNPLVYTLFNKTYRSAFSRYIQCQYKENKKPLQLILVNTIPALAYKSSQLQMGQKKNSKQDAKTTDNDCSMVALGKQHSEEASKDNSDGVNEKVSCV
Observed: ligand displacement
Tested at: 10 µM
`CNC(=O)c1ccc(Nc2ncc(C(F)(F)F)c(NCc3nccnc3N(C)S(C)(=O)=O)n2)cc1` gave an inhibition of 0.93%.
`N#CC1(c2ccccn2)CCN(Cc2cc(C(=O)N3CCCC3)c(=O)n3ccccc23)CC1` has an inhibition of -15.7%.
With `C[C@@]1(Cc2ccc(C#N)cc2)C(=O)N(c2cc(Cl)cc(Cl)c2)c2ncc(C(=O)NC3(c4nc(C5CCC5)no4)CC3)n21` the inhibition was 31.9%.

Series 4
Target: Histone acetyltransferase KAT6A, both winged helices, GST fusion (KAT6A, Homo sapiens, UniProt Q92794, residues 1-181)
Method: protein binding microarray
Molecule type: double-stranded DNA, one strand shown
Medium: in vitro
Tested at: not given
Notes: 8-mer, flanks averaged, mean of 2 arrays, mostly near background
Baseline: not given
Direction: higher = stronger binding
Residues (chain): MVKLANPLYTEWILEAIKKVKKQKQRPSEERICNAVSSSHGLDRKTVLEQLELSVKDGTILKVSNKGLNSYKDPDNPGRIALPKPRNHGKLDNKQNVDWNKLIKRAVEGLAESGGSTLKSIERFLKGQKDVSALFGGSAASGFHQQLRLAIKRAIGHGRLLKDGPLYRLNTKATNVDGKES
For `ACCCCAGC`, the E-score was -0.146.
The E-score of `AAAAGGTC` is reported as -0.181.
The E-score of `CATAGCGC` is reported as 0.268.
`CGAGATCG` has an E-score of 0.0954.
For `CCGATGCC`, the E-score was 0.124.
For `ACCCCGGG`, the E-score was 0.205.
`ACCGCACG` gave an E-score of 0.202.
`GCTAAAAA` gave an E-score of 0.00668.

For quick reference, copied from above (series 4):
The E-score of `AAAAGGTC` is reported as -0.181.
The E-score of `CATAGCGC` is reported as 0.268.
`CGAGATCG` has an E-score of 0.0954.
For `CCGATGCC`, the E-score was 0.124.
For `ACCCCGGG`, the E-score was 0.205.
`ACCGCACG` gave an E-score of 0.202.
